Measurements from different studies.
Every numbered part comes from another study and shows a few of its results, in no order.

Block 1 — method: RNA Bind-n-Seq; molecule type: RNA; sample: in vitro; concentration: 1 µM; notes: whole 134-nt RNA, ends assumed; added: 150 mM KCl; relative to: input library; reading: higher = stronger binding
Target: Ras GTPase-activating protein-binding protein 1, C-terminal RGG region (G3BP1, Homo sapiens, UniProt Q13283)
Chain of UniProt Q13283 (whole entry, looked up): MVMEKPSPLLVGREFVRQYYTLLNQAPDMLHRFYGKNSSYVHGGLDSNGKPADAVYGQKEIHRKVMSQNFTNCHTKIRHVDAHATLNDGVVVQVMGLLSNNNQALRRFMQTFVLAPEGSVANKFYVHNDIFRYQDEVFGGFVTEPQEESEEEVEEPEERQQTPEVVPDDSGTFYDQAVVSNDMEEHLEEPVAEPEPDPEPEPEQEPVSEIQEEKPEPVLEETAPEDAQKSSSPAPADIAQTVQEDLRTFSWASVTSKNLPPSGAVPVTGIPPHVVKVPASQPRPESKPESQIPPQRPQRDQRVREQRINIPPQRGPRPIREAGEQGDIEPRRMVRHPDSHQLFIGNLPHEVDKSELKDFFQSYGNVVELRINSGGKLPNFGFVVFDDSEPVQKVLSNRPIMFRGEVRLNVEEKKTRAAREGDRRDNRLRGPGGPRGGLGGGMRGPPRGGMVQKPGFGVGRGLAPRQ
All sequences stand within: GGGAGUUCUACAGUCCGACGAUC … UGGAAUUCUCGGGUGUCAAGG
Oligonucleotide | log2 enrichment
UCCUGUGCUACACAUCGUAUGUACCGAAUCAAACCCCCCCAAAUUUUUAAAUUUUUAAAAAAGUAUUAUGUUACGCCGUUCGGAUCUGCA | -0.47
UCCUGUGCUACACAUCGUAUGUACCGAAUCAAAGUGUGUGUGUAAAGUGUGUGUGUAAAAAAGUAUUAUGUUACGCCGUUCGGAUCUGCA | -0.14
CCUCAAGUCCUGUGCUACACAUCGUAUGUACCGAAUCGGUGGAAAGGUUUGGAAAGUAUUAUGUUACGCCGUUCGGAUCUGCACUUCCAG | -0.987
UCCUCAAGUCCUGUGCUACACAUCGUAUGUACCGAAUCGGAGGAGGUUUGGAAAGUAUUAUGUUACGCCGUUCGGAUCUGCACUUCCAGC | -1.36
UCCUCAAGUCCUGUGCUACACAUCGUAUGUACCGAAUCGGGCGGCGGGCGGAAAGUAUUAUGUUACGCCGUUCGGAUCUGCACUUCCAGC | -1.2
AGUCCUGUGCUACACAUCGUAUGUACCGAAUCGGGAAAAAGGGUUUUUUUGGGUGGGAAAGUAUUAUGUUACGCCGUUCGGAUCUGCACU | 0.515
ACCAUGCAGGUGGGCAUCUUUGGGAAGUGGGGCAAGGGGGGGAUAGGGAGGGGGGUAACACUUUGGGAACAGGUGGUCCCAGGUAGUUUC | 2.03
CAAGUCCUGUGCUACACAUCGUAUGUACCGAAUCGGGAAAGGGUUUGGGAAAGGGAAAGUAUUAUGUUACGCCGUUCGGAUCUGCACUUC | 1.66
UGGUUUGAGUCCAGCCAAUGACACUGGAGCCAAAAAGAAGAAAAAGAAACAAAAAAAGAAGAAAGAAAAAGGCAGUGAGACAGAUUCAGC | -1.17

Block 2 — method: protein-binding microarray; molecule type: double-stranded DNA, one strand shown; sample: in vitro; concentration: 2200 nM top; notes: 60-bp whole probe; added: salmon DNA 0.4 mg/ml; relative to: random background probes; reading: higher = stronger binding; all sequences stand within: GCCTAGCAC … GTCTTGATTCGCTTGACGCTGCTG
Target: Interferon regulatory factor 7, full length, phosphomimetic (IRF7, Homo sapiens, UniProt Q92985, residues 1-503, S471D/S472D/S475D/S476D/S477D/S483D/S484D/S487D)
Chain of UniProt Q92985 (whole entry, unmodified, looked up): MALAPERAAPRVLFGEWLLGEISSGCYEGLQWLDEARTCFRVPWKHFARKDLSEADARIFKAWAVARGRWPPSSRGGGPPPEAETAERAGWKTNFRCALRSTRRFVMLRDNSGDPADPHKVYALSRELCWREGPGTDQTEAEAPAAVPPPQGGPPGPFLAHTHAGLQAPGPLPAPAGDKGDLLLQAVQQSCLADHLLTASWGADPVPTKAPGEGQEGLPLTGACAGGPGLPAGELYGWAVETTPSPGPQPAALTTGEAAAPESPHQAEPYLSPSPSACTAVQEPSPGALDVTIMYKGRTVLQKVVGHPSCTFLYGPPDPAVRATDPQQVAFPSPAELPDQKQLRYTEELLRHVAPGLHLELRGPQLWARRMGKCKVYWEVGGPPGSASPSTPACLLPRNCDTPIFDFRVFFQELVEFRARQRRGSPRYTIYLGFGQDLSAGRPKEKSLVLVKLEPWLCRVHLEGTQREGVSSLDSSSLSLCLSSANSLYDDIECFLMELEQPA
Oligonucleotide | fitted relative affinity [z-score]
GACGATATCAGTCTCAAGACGTGCTAG | 0.173
GACGAACTGAGTTTCGTGACGTGCTAG | 1.46
ACTGTGTTTTGGATGTCAGAGTGCTAG | 0.965
TTAGGTTTCGACATTCGGTTAGTGCTA | 4.98
GCCGATTTCGGGACTGGAGACGTGCTA | 1.94
AACCATTTTGGTTTTCTCTAGTGCTAG | 1.99
TTCGATCTCAGTTTCGATTAGTGCTAG | 5.92
CGCCCTCTCAACCATCCTGGGGTGCTA | 0.121
TTAGATATCGGGTATCGATTTGTGCTA | 0.899
GACGGCATCGACACTGGGGACGTGCTA | -0.747
TTAGGTATCCTACCGCTTTAGTGCTAG | 0.41
TTAAGAATGTTTTTCATTGTGTGCTAG | 0.0289
GACGGTATCGGTTTAGGGACGTGCTAG | 1.5
TTAGGACTGCCTTTCCTTTAGTGCTAG | 1.06
GACGATATCCGGTTTCGAGACGTGCTA | 3.23
TTAGGTATCGGATTTCGGTTAGTGCTA | 2.45
TCAGATGTCAAACTCACACTGTGCTAG | 0.436
GACGGTTTCGACACTGGAGACGTGCTA | 2.39
TTCTTTTTTTTCTTTAAAAGGTGCTAG | 2.13

Block 3 — method: protein binding microarray; molecule type: double-stranded DNA, one strand shown; sample: in vitro; concentration: not given; relative to: not given; reading: higher = stronger binding
Target: Histone acetyltransferase KAT6A, both winged helices, GST fusion (KAT6A, Homo sapiens, UniProt Q92794, residues 1-181)
Notes: 8-mer, flanks averaged, mean of 2 arrays, mostly near background
Construct (chain): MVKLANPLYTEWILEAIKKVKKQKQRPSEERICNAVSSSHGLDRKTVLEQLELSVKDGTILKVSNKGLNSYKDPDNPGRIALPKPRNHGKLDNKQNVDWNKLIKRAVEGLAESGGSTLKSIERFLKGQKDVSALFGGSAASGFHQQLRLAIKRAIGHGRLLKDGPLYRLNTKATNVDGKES
Oligonucleotide | E-score
AAGTGCCA | -0.177
CCGGGAGA | 0.172
CAGCGCCG | 0.337
CCCTTCCA | -0.101
AGAACCAC | -0.173
GAGATCCC | -0.0205
CGTCTTAA | 0.0407
CGAAGCAG | -0.0362
CACCCGCA | 0.141
AAGGCGAT | -0.074
CCTATGCG | 0.119
CGGAAATC | 0.11
CATTAGAC | 0.0757
ACAGCGCC | 0.277
GATGTACA | 0.0356
AACCATGC | 0.048
GATAGCAC | 0.0535

Block 4 — method: RNA Bind-n-Seq; molecule type: RNA; sample: in vitro; concentration: 365 nM; relative to: no-protein control; reading: higher = stronger binding
Target: RNA binding protein fox-1 homolog 2, RRM domain, GST-SBP tag (RBFOX2, Homo sapiens, UniProt O43251-10, residues 100-194)
Notes: natural RNA segment, single round, ends assumed
All sequences stand within: GGGAGUUCUACAGUCCGACGAUC … UGGAAUUCUCGGGUGCCAA
Target sequence (chain): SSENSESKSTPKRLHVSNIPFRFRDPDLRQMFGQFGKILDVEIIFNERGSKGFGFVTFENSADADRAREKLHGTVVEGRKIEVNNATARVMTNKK
Oligonucleotide | RBNS enrichment (R)
GCUAAAUUGUGACCUGGGGAAGGACUUUGCUUUAGUCGGUGAUGUUCGUACUUGGUGACAAAUUGAGACUGCUGCUGGAUUCAGAUUGACAAGAUUUUCUUGGAUUUUUU | 0.276
GGAGGGAGAACGCUAUAUUGGGUUCACAGUUACAUGGUGAUCAAAGAGAACUUCUCAGUCUCCAGGAAGAUAGCAUCUUUUCAUGAGUGUUUGAAUGAAAACAACACGAA | 5.08
CAGACGUGCAGUGCCAUAAGGUGCCCCAGUCCUUCUGGAGGCCUGGGCUGCUACUGUUGGCCACCCUGUGUCUAGUGAUGCUCUCUGUGCUCACCUCCUAGGCCAUGGAG | 0.249
UGGCAGCUGGCAUCGUGUCGCUUUAUCUGCCCCCGCACAGUUUGCUUUGUACGUCUGCCAAGAAUCUUCCAGUUAUUAGCAAACUCAGACGAAUGUACCGCCAGUAUUAU | 0.723
AAACAUUGUCCCUGCCCCCGGGGGCUCACAUGCCACUGGAAACAACAGACUCUUAAACUAACAAUUCAAGCAGGCGCCAAGUGCUAUGACAGAGGUGUGAAUAAAAGCAU | 0.301
GCUUUGAUCACCACAGUCUCUAACUUGCUGCUUUCUCCAGAAGCCUUUUUAUGUAUGGGUUAGAAACUCUUUUUUCCCUAGUCAGAGCAGCCAGGCUGUACAAAAUCUGU | 0.448
UUUCCUUAGAGAAAAUAAUUUUAUUCUGCUUUGUCCAAUUAAAUUAUUCCAAUGGCGGAUGGUAAUAUUCACCAUCUCUAAUUCAUUGGUCACUGGUAGGUAAGCAUGAG | 6.37
AAAAUUGAUAUGUUGAAACUUUAAUUCUUUUAUCAAUCCCAGCAUUUUGAGAUCAGUCUUUAUUAAUAAAACCUGUUCUCUUUAAUCAGCUUAAAAUCCAAAGUGUCAUA | 0.358

Block 5 — method: RNA Bind-n-Seq; molecule type: RNA; sample: in vitro; concentration: 20 nM; notes: 6-mer, flanks averaged, single round; added: 150 mM KCl; relative to: input library; reading: higher = stronger binding
Target: TAR DNA-binding protein 43, full length, His tag (TARDBP, Homo sapiens, UniProt Q13148, residues 1-414)
Oligonucleotide | 6-mer enrichment (R)
UGACCG | 0.846
GCCACG | 1.04
GUAACA | 0.685
CCAGGA | 0.937
CUUGGC | 0.802
UGAUUC | 0.575
CUUGCA | 0.648
AGGAUG | 1.48
UUGGUA | 0.768
UCUUCC | 0.539
AUUACC | 0.577
UGGGAA | 2.02
ACGCCU | 0.633
ACAACG | 0.757
GCAGAA | 0.976
CCCCUG | 0.692
UUAAUC | 0.562
UUAAAA | 0.625
UCCAUG | 0.667
CCAGUC | 0.633
UUUGUA | 0.736
GCAGCC | 0.893
CAUGGC | 0.865
